Published values pooled from the literature.
Protocols differ between the studies behind these lines. ± gives the spread as reported.

Compound | test | system | conditions | how to read | quantity | result
CC(C)[C@H](NC(=O)CNC(=O)[C@H](CCC(N)=O)NC(=O)[C@H](C)N)C(=O)O |  | human | single dose, 1 mg/kg |  | probably related adverse events | 0%
CCCCCCCC(=O)NCCCC[C@H](NC(=O)[C@H](Cc1ccccc1)NC(=O)[C@@H](CCCNC(=N)N)NC(=O)[C@@H](N)Cc1ccc(O)cc1)C(N)=O |  | mouse, CD-1, male, brain | intravenous, 3 mg/kg |  | MRT | 145 min
CC[C@H](C)[C@H](N)C(=O)N[C@H](C(=O)N[C@@H](CCCCN)C(=O)N[C@H](C(=O)N[C@H](C(=O)NCC(=O)N[C@@H](CC(=O)O)C(=O)N[C@@H](CC(C)C)C(=O)N[C@H](C(=O)N[C@@H](CCCCN)C(=O)N[C@@H](Cc1c[nH]c2ccccc12)C(=O)N[C@H](C(=O)N[C@H](C(=O)N[C@@H](CC(=O)O)C(=O)N[C@H](C(=O)N[C@H](C(=O)N[C@@H](CC(N)=O)C(=O)N[C@@H](CO)C(=O)N[C@@H](Cc1ccccc1)C(=O)N[C@H](C(=O)N[C@@H](CCCCN)C(=O)N[C@@H](CCCCN)C(=O)O)[C@@H](C)O)C(C)C)[C@@H](C)O)[C@@H](C)CC)[C@@H](C)CC)C(C)C)[C@@H](C)CC)[C@@H](C)O)[C@@H](C)CC | circular dichroism | POPC vesicles | pH 7.5 |  | fractional helicity | 0.92
O.[C-]#[O+].[C-]#[O+].[C-]#[O+].[Re+].c1ccc(-c2ccccn2)nc1 | RP-HPLC C18 column, refers to: MeCN adduct | MeCN:water 40:60, 0.1% TFA | isocratic elution |  | capacity factor | 3.3
CC[C@H](C)C(=O)N1CCC(NC(=O)Nc2ccc(OC(F)(F)F)c(F)c2)CC1 |  | human, fed, plasma | oral, 8 mg, single dose tablet, geometric mean |  | AUC(0-t) | 4120 ng·h/mL
CC1N=C(c2ccccc2F)c2cc(Br)ccc2-n2cnc(C(=O)OC3OC(CO)C(O)C(O)C3O)c21 (stereo not shown) | LC-MS/MS | Swiss Webster mouse, female, urine | intraperitoneal, 750 µg parent drug, 24 to 48 h |  | cumulative excretion | 2.4 ± 0.2%
CN(C)C(CNC(=O)Nc1cc(C(F)(F)F)ccc1N1CCOCC1)c1ccncc1 (stereo not shown) |  | mouse, serum | intraperitoneal, 180 mg/kg single dose |  | serum ALT | 80 U/L
CC(=O)[O-].CN1CCCN2CCN(CCCN(Cc3ccccc3)CC2)CC1.F[P-](F)(F)(F)(F)F.[Ni+2] | cyclic voltammetry, refers to: Ni(II)/Ni(III) | acetonitrile | irreversible anodic peak | relative to: SHE | oxidation potential | 1.28 V
CCN(CC)c1ccc2c(-c3ccccc3C(=O)OCCC[18F])c3ccc(=[N+](CC)CC)cc-3oc2c1 |  | rat, bone | 1 h |  | tracer uptake | 0.65 %ID/g
COc1ccc(F)cc1S(=O)(=O)Nc1cnc2c(c1)C(=O)NCCO2 |  | male C57BL/6 mouse, plasma | oral, 1 mg/kg, single dose |  | Tmax | 1 h

Repeated from above:
Compound | test | system | conditions | how to read | quantity | result
CN(C)C(CNC(=O)Nc1cc(C(F)(F)F)ccc1N1CCOCC1)c1ccncc1 (stereo not shown) |  | mouse, serum | intraperitoneal, 180 mg/kg single dose |  | serum ALT | 80 U/L
